Measured values gathered from unrelated publications.
Compare with care: the assays were run in different laboratories. Numbers after ± are the reported error.

SMILES | assay | system | setting | scale | endpoint | value
Cc1cc(-c2ccc(NC(=O)[C@H](CCCCNC(=O)CCOCCOCCC(=O)N[C@H](Cc3ccccc3)C(=O)N[C@H]3CSSC[C@@H](C(=O)N[C@H](C(=O)O)[C@@H](C)O)NC(=O)[C@H]([C@@H](C)O)NC(=O)[C@H](CCCCN)NC(=O)[C@@H](Cc4c[nH]c5ccccc45)NC(=O)[C@H](Cc4ccc(O)cc4)NC3=O)NC(=O)CN3CCN(CC(=O)O)CCN(CC(=O)O)CCN(CC(=O)O)CC3)c(C)c2)ccc1N=Nc1ccc2c(S(=O)(=O)O)cc(S(=O)(=O)O)c(N)c2c1O [lutetium-177 labelled] |  | patients with metastatic NETs, liver metastases |  | baseline: cpd over 177Lu-EB-TATE | absorbed dose ratio | 4 fold
CC(C)C[C@H](NC(=O)[C@H](Cc1ccc(O)cc1)NC(=O)[C@@H](CCCNC(=N)N)NC(=O)[C@@H](CO)NC(=O)[C@H](Cc1ccccc1)NC(=O)[C@H](CC1CCCCC1)NC(=O)[C@H](CC(=O)O)NC(=O)CN1CCCN2CCN(CCCN(CC(=O)O)CC2)CC1)C(=O)N[C@@H](Cc1c[nH]c2ccccc12)C(=O)N[C@@H](CO)C(=O)O [copper-64 labelled] |  | female NMRI nude mice, spleen | 1 h p.i. |  | tissue uptake | 6.2 ± 1.2 %ID/g
N=C(N)NCCC[C@@H]1NC(=O)[C@H](CCCCNC(=O)CNC(=O)CNC(=O)CNC(=O)CC[C@H](NC(=O)CNC(=O)CNC(=O)CNC(=O)CC[C@H](NC(=O)CN2CCN(CC(=O)O)CCN(CC(=O)O)CCN(CC(=O)O)CC2)C(=O)NCC(=O)NCC(=O)NCC(=O)N[C@@H](CCC(=O)NCC(=O)NCC(=O)NCC(=O)NCCCC[C@@H]2NC(=O)[C@@H](Cc3ccccc3)NC(=O)[C@H](CC(=O)O)NC(=O)CNC(=O)[C@H](CCCNC(=N)N)NC2=O)C(=O)NCC(=O)NCC(=O)NCC(=O)NCCCC[C@@H]2NC(=O)[C@@H](Cc3ccccc3)NC(=O)[C@H](CC(=O)O)NC(=O)CNC(=O)[C@H](CCCNC(=N)N)NC2=O)C(=O)NCC(=O)NCC(=O)NCC(=O)NCCCC[C@@H]2NC(=O)[C@@H](Cc3ccccc3)NC(=O)[C@H](CC(=O)O)NC(=O)CNC(=O)[C@H](CCCNC(=N)N)NC2=O)NC(=O)[C@@H](Cc2ccccc2)NC(=O)[C@H](CC(=O)O)NC(=O)CNC1=O [indium-111 labelled] |  | female athymic nu/nu mice, U87MG tumour | intravenous, 111 kBq, 24 h |  | tissue uptake | 8.68 ± 1.42 %ID/g
Cc1cc(-c2ccc(NC(=O)[C@H](CCCCNC(=O)CCN3C(=O)CC(SCCC(=O)N[C@H](Cc4ccccc4)C(=O)N[C@H]4CSSC[C@@H](C(=O)N[C@H](C(=O)O)[C@@H](C)O)NC(=O)[C@H]([C@@H](C)O)NC(=O)[C@H](CCCCN)NC(=O)[C@@H](Cc5c[nH]c6ccccc56)NC(=O)[C@H](Cc5ccc(O)cc5)NC4=O)C3=O)NC(=O)CN3CCN(CC(=O)O)CCN(CC(=O)O)CCN(CC(=O)O)CC3)c(C)c2)ccc1N=Nc1ccc2c(S(=O)(=O)O)cc(S(=O)(=O)O)c(N)c2c1O (some centres unmarked) [gallium-68 labelled] | micro-PET | male BALB/c nude mouse, AR42J xenograft, tumour and kidney | intravenous, 7.4 MBq, 4 h | baseline: tumour over kidney | tumour-to-tissue uptake ratio | 1.16 ± 0.19
N=C(N)NCCC[C@@H]1NC(=O)[C@H](CCCCNC(=O)CNC(=O)CNC(=O)CNC(=O)CC[C@H](NC(=O)CNC(=O)CNC(=O)CNC(=O)CN2CCN(CC(=O)O)CCN(CC(=O)O)CCN(CC(=O)O)CC2)C(=O)NCC(=O)NCC(=O)NCC(=O)NCCCC[C@@H]2NC(=O)[C@@H](Cc3ccccc3)NC(=O)[C@H](CC(=O)O)NC(=O)CNC(=O)[C@H](CCCNC(=N)N)NC2=O)NC(=O)[C@@H](Cc2ccccc2)NC(=O)[C@H](CC(=O)O)NC(=O)CNC1=O [indium-111 labelled] |  | female athymic nu/nu mice, muscle | intravenous, 111 kBq, 72 h |  | tissue uptake | 0.2 ± 0.05 %ID/g
CCCC[C@H](NC(=O)CNC(=O)CNC(=O)CN1CCN(CC(=O)O)CCN(CC(=O)O)CCN(CC(=O)O)CC1)C(=O)N[C@H]1CC(=O)NCCCC[C@@H](C(N)=O)NC(=O)[C@H](Cc2c[nH]c3ccccc23)NC(=O)[C@H](CCCNC(=N)N)NC(=O)[C@@H](Cc2ccccc2)NC(=O)[C@H](Cc2c[nH]cn2)NC1=O [lutetium-177 labelled] |  | C57 mouse, female, muscle | intravenous, 0.037 MBq, 0.5 h |  | tissue uptake | 1.05 ± 0.34 %ID/g
CCCC[C@H](NC(=O)CNC(=O)CNC(=O)CN1CCN(CC(=O)O)CCN(CC(=O)O)CC1)C(=O)N[C@H]1CC(=O)NCCCC[C@@H](C(N)=O)NC(=O)[C@H](Cc2c[nH]c3ccccc23)NC(=O)[C@H](CCCNC(=N)N)NC(=O)[C@@H](Cc2ccccc2)NC(=O)[C@H](Cc2c[nH]cn2)NC1=O [technetium-99m labelled] |  | C57 mouse, kidney | iv, 0.037 MBq, 0.5 h |  | tissue uptake | 7.16 ± 0.79 %ID/g
N=C(N)NCCC[C@@H]1NC(=O)[C@H](CCCCNC(=O)CC[C@H](NC(=O)CC[C@H](NC(=O)CN2CCN(CC(=O)O)CCN(CC(=O)O)CCN(CC(=O)O)CC2)C(=O)N[C@@H](CCC(=O)NCCCC[C@@H]2NC(=O)[C@@H](Cc3ccccc3)NC(=O)[C@H](CC(=O)O)NC(=O)CNC(=O)[C@H](CCCNC(=N)N)NC2=O)C(=O)NCCCC[C@@H]2NC(=O)[C@@H](Cc3ccccc3)NC(=O)[C@H](CC(=O)O)NC(=O)CNC(=O)[C@H](CCCNC(=N)N)NC2=O)C(=O)NCCCC[C@@H]2NC(=O)[C@@H](Cc3ccccc3)NC(=O)[C@H](CC(=O)O)NC(=O)CNC(=O)[C@H](CCCNC(=N)N)NC2=O)NC(=O)[C@@H](Cc2ccccc2)NC(=O)[C@H](CC(=O)O)NC(=O)CNC1=O [indium-111 labelled] |  | female athymic nu/nu mice, liver | intravenous, 72 h |  | tissue uptake | 1.62 ± 0.4 %ID/g
CCCC[C@H](NC(=O)CCCCCCCNC(=O)CN1CCN(CC(=O)O)CCN(CC(=O)O)CC1)C(=O)N[C@H]1CC(=O)NCCCC[C@@H](C(N)=O)NC(=O)[C@H](Cc2c[nH]c3ccccc23)NC(=O)[C@H](CCCNC(=N)N)NC(=O)[C@@H](Cc2ccccc2)NC(=O)[C@H](Cc2c[nH]cn2)NC1=O [copper-64 labelled] |  | C57 mice, bone | intravenous, 0.37 MBq, 2 h |  | tissue uptake | 0.13 ± 0.13 %ID/g
CN1C(=O)[C@@H](Cc2ccc(O)cc2)NC(=O)CNC(=O)[C@H](Cc2ccc3ccccc3c2)NC(=O)[C@H](CCCNC(=N)N)NC(=O)[C@H]1CCCNC(=O)c1ccc(CNC(=O)CN2CCN(CC(=O)O)CCN(CC(=O)O)CCN(CC(=O)O)CC2)cc1 [gallium-68 labelled] |  | C57BL/6 mice, no tumour, kidney | highest of vital organs |  | kidney uptake | ~6.3 %ID/g
CCCC[C@H](NC(=O)COCCOCCNC(=O)CN1CCN(CC(=O)O)CCN(CC(=O)O)CC1)C(=O)N[C@H]1CC(=O)NCCCC[C@@H](C(N)=O)NC(=O)[C@H](Cc2c[nH]c3ccccc23)NC(=O)[C@H](CCCNC(=N)N)NC(=O)[C@@H](Cc2ccccc2)NC(=O)[C@H](Cc2c[nH]cn2)NC1=O [copper-64 labelled] |  | C57 mice, blood | intravenous, 0.37 MBq, 0.5 h |  | tissue uptake | 3.48 ± 0.95 %ID/g
CCCCCCCC/C=C\CCCCCCCC(=O)OC[C@H](NC(=O)[C@H](Cc1c[nH]c2ccccc12)NC(=O)[C@H](Cc1c[nH]cn1)NC(=O)[C@@H]1CCC(=O)N1)C(=O)N[C@@H](Cc1ccc(O)cc1)C(=O)N[C@H](CC(C)C)C(=O)N[C@@H](CC(C)C)C(=O)N[C@@H](CCCNC(=N)N)C(=O)N1CCC[C@H]1C(=O)NCC | HPLC | human plasma | 1 mg/mL, 4 weeks, 37 °C |  | conversion to leucine | 83.4%
COc1ccc2cc([C@H](C)C(=O)N[C@H](Cc3ccccc3)C(=O)N[C@H](Cc3ccccc3)C(=O)N[C@H](CCCCN)C(=O)N[C@H](Cc3ccc(O)cc3)C(=O)O)ccc2c1 | oscillatory rheology | hydrogel 0.8 wt% |  |  | critical strain | 5.5%
CC1(C)C(/C=C/C2=C(Oc3ccc(CCC(=O)N[C@@H](CSC4CC(=O)N(CCNC(=O)CN5CCN(CC(=O)O)CCN(CC(=O)O)CCN(CC(=O)O)CC5)C4=O)C(=O)NCCCC[C@@H]4NC(=O)[C@@H](Cc5ccc(O)cc5)NC(=O)[C@H](CC(=O)O)NC(=O)CNC(=O)[C@H](CCCNC(=N)N)NC4=O)cc3)C(=C/C=C3/N(CCC[N+](C)(C)C)c4ccc(S(=O)(=O)O)cc4C3(C)C)/CCC2)=[N+](CCC[N+](C)(C)C)c2ccc(S(=O)(=O)O)cc21 (some centres unmarked) |  |  |  |  | emission maximum | 790 nm

A few entries again:
SMILES | assay | system | setting | scale | endpoint | value
CC(C)C[C@H](NC(=O)[C@H](Cc1ccc(O)cc1)NC(=O)[C@@H](CCCNC(=N)N)NC(=O)[C@@H](CO)NC(=O)[C@H](Cc1ccccc1)NC(=O)[C@H](CC1CCCCC1)NC(=O)[C@H](CC(=O)O)NC(=O)CN1CCCN2CCN(CCCN(CC(=O)O)CC2)CC1)C(=O)N[C@@H](Cc1c[nH]c2ccccc12)C(=O)N[C@@H](CO)C(=O)O [copper-64 labelled] |  | female NMRI nude mice, spleen | 1 h p.i. |  | tissue uptake | 6.2 ± 1.2 %ID/g
N=C(N)NCCC[C@@H]1NC(=O)[C@H](CCCCNC(=O)CNC(=O)CNC(=O)CNC(=O)CC[C@H](NC(=O)CNC(=O)CNC(=O)CNC(=O)CN2CCN(CC(=O)O)CCN(CC(=O)O)CCN(CC(=O)O)CC2)C(=O)NCC(=O)NCC(=O)NCC(=O)NCCCC[C@@H]2NC(=O)[C@@H](Cc3ccccc3)NC(=O)[C@H](CC(=O)O)NC(=O)CNC(=O)[C@H](CCCNC(=N)N)NC2=O)NC(=O)[C@@H](Cc2ccccc2)NC(=O)[C@H](CC(=O)O)NC(=O)CNC1=O [indium-111 labelled] |  | female athymic nu/nu mice, muscle | intravenous, 111 kBq, 72 h |  | tissue uptake | 0.2 ± 0.05 %ID/g
